# Measurements collected from several papers.
# A part holds a random share of what one study measured. ± gives the spread as reported.
# Chain of UniProt Q15303 (whole entry, looked up): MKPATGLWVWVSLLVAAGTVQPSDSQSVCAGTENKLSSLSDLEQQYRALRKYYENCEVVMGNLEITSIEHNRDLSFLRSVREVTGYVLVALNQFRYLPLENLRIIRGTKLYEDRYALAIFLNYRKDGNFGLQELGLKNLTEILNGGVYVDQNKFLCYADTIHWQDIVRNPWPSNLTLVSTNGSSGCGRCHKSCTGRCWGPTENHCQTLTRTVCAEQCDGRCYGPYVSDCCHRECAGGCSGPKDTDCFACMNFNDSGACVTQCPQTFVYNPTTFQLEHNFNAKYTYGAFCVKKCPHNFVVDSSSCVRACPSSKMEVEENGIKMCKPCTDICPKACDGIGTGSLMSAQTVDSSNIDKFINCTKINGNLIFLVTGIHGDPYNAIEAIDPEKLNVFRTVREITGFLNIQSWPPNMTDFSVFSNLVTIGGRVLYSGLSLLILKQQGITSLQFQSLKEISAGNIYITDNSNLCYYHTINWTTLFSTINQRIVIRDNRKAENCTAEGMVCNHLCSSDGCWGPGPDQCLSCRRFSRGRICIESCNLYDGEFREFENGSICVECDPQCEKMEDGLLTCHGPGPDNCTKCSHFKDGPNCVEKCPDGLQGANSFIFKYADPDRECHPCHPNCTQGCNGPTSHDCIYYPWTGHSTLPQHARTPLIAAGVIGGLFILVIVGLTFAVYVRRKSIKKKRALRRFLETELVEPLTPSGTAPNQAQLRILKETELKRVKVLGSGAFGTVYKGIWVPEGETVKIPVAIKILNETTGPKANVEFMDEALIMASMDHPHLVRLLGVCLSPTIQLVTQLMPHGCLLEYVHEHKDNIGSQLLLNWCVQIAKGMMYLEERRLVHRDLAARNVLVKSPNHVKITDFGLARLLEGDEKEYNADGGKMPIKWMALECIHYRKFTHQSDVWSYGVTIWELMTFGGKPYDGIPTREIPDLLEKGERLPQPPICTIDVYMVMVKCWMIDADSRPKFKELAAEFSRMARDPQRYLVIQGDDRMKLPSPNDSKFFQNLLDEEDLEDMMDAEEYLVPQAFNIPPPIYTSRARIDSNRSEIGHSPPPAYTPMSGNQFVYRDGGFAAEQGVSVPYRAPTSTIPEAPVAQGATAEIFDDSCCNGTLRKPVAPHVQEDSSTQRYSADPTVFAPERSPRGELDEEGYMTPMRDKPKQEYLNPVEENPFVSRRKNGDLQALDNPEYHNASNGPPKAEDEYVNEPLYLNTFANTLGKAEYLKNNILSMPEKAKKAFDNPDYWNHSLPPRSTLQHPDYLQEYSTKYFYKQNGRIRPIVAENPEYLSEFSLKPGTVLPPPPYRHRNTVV
# Chain of UniProt Q08881 (whole entry, looked up): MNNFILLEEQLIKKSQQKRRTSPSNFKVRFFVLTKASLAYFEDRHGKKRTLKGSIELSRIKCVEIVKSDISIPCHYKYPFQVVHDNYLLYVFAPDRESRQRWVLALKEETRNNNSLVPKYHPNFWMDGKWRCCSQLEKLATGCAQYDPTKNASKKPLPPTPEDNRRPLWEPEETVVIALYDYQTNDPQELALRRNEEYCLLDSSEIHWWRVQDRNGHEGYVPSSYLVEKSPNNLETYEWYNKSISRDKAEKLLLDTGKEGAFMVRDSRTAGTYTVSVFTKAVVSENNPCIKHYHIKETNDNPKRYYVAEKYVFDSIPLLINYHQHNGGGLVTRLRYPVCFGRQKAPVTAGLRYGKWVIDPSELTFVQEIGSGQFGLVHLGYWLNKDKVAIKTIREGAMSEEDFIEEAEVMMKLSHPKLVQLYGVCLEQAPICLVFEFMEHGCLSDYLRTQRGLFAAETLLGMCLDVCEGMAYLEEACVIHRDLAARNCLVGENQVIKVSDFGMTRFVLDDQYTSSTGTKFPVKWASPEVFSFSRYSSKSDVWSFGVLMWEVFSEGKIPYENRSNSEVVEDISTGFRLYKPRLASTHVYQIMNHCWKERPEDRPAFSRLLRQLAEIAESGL
# Chain of UniProt P51451 (whole entry, looked up): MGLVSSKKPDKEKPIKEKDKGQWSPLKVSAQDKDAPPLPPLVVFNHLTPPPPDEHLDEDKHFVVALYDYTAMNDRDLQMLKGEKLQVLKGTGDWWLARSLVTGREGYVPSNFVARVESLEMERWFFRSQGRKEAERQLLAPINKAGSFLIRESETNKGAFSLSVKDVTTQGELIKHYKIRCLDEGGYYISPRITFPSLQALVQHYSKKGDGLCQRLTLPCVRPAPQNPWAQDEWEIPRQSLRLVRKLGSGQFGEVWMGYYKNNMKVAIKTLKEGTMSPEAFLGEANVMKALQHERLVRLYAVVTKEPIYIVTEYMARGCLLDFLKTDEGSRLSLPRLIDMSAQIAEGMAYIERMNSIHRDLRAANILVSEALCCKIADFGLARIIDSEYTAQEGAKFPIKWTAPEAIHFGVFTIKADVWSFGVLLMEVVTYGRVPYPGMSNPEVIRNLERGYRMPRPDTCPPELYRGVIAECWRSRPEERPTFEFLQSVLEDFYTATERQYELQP
# Chain of UniProt P51813 (whole entry, looked up): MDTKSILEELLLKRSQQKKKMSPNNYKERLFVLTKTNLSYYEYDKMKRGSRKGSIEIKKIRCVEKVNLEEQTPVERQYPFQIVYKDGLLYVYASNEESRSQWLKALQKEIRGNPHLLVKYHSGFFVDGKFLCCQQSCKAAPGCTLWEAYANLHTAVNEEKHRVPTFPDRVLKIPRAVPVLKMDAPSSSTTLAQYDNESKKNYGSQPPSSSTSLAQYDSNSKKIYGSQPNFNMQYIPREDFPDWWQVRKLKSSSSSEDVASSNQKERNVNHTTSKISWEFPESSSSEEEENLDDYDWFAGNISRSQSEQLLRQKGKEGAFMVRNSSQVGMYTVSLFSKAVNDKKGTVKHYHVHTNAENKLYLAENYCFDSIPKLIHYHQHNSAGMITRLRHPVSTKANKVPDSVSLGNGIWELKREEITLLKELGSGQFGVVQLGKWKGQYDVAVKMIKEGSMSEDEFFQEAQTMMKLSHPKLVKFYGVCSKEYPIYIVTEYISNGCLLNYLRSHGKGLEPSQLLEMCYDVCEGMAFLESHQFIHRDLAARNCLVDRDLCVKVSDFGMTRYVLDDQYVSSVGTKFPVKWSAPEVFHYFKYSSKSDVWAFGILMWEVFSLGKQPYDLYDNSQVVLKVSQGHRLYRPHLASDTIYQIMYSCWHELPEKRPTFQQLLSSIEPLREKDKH

# Set 1
# Organism: Leishmania donovani
# Cell line: THP-1
# Strain: DD8 promastigote
# Reference: THP-1 cytotoxicity over promastigote activity
SMILES,selectivity ratio
Clc1ccc2nc3c(c(Nc4ccc5c(c4)OCCO5)c2c1)CCC3,28.6
CC(=O)c1cccc(Nc2c3c(nc4ccccc24)CCC3)c1,5.68
COC(=O)c1ccc(Nc2c3c(nc4ccccc24)CCC3)cc1,3.69
Cc1ccc(Nc2c3c(nc4ccccc24)CCC3)cc1,3.64
c1ccc2c(Nc3ccc4c(c3)OCCO4)c3c(nc2c1)CCC3,10.7
CCOC(=O)c1ccc(Nc2c3c(nc4ccccc24)CCC3)cc1,2.91

# Set 2
# SMILES: CN(C1COC1)C(C)(C)/C=C(\C#N)C(=O)N1CCC[C@H]1Cn1nc(-c2ccc(Oc3ccccc3)cc2F)c2c(N)ncnc21
# Effect on: enzyme activity
# BTK: Tyrosine-protein kinase BTK (BTK, Homo sapiens, UniProt Q06187)
# Chain of UniProt Q06187 (whole entry, looked up): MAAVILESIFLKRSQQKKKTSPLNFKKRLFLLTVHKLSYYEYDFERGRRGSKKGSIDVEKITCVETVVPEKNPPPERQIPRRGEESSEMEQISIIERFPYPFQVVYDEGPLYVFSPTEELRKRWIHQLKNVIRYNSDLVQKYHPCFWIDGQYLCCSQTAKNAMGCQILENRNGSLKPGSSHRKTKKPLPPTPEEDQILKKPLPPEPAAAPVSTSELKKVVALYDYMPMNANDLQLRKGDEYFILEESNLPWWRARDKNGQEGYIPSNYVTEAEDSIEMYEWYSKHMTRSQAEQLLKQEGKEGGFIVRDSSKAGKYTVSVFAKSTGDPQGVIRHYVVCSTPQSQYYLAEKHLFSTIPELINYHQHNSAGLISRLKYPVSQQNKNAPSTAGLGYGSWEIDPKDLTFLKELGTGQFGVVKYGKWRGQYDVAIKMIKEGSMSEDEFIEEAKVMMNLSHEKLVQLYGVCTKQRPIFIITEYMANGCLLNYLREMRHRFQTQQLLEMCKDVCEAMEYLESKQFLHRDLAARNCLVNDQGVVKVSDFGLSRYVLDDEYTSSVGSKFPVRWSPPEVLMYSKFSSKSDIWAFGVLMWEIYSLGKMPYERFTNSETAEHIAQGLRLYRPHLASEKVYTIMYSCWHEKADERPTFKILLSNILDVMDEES
target,test,setting,IC50
"ERBB4 (Homo sapiens, UniProt Q15303)",inhibitor,,65 nM
"BMX (Homo sapiens, UniProt P51813)",inhibitor,,7.6 nM
"ERBB2 (Homo sapiens, UniProt P04626)",inhibitor,,> 5000 nM
"BLK (Homo sapiens, UniProt P51451)",inhibitor,,68 nM
BTK,,preincubation 90 min,1.5 ± 0.2 nM
BTK,,preincubation 10 min,2.6 ± 0.3 nM
"ITK (Homo sapiens, UniProt Q08881)",inhibitor,,> 5000 nM
"EGFR (Homo sapiens, UniProt P00533)",inhibitor,,3200 nM

# Further values, each from its own experiment
SMILES,target or system,system,setting,scale,quantity,value
CC(C)NC(=O)N1CCC(NC2=Nc3cc(F)ccc3N(CC(F)F)c3ccc(Cl)cc32)C1 (stereo in doubt),sample BA colorectal tumour organoid,,0.1 µM,reference: DMSO,viability,99.8%
Cn1cc(-c2cccc(CN3CCC4(CC3)COc3c4ccc4c3CN([C@H]3CCC(=O)NC3=O)C4=O)c2)cn1,,cynomolgus monkeys,"intravenous, 1.00 mg/kg",,terminal volume of distribution,13.8 L/kg
CO[C@H]1CC[C@H](CNc2ccc(S(=O)(=O)NC(=O)c3ccc(N4CCN(CC5=C(c6ccc(Cl)cc6)CC(C)(C)CC5)CC4)cc3Oc3cnc4[nH]ccc4c3)cc2[N+](=O)[O-])CC1,normal colon organoid sample F,,4 days,,IC50,6600 nM

# For quick reference, copied from above (set 1):
SMILES,selectivity ratio
Clc1ccc2nc3c(c(Nc4ccc5c(c4)OCCO5)c2c1)CCC3,28.6
CC(=O)c1cccc(Nc2c3c(nc4ccccc24)CCC3)c1,5.68
